Experimental data from different studies.
Protocols differ between the studies behind these lines. “And” joins repeats or separate records; there may be more than shown. ± gives the spread as reported.

COC(=O)[C@H]1[C@H]2C[C@H]3O[C@@]4(CCN3C[C@H]2C[C@@H](OC(=O)c2cc(OC)c(OC)c(OC)c2)[C@@H]1OC)C(=O)Nc1cc(OC)c(-c2ccc(F)cc2)cc14 — IC50 (CAPAN-1; cell growth or viability, crystal violet; 72 h): 28.9 µM
COc1nc(Nc2nc(O)c3ccccc3n2)nc2ccc(C)cc12 — IC50 (LDR; cell viability, MTS; 4 days): 1.2 µM
CC(C)=CCC1=C([O-])C(=O)c2ccccc2C1=O.CC(C)=CCC1=C([O-])C(=O)c2ccccc2C1=O.Cc1cc2cccnc2c2ncccc12.[Cu+2] — IC50 (A2780; cell viability, MTT; 24 h): 0.55 µM and ~0.6 µM
C#CCN(CC(=O)O[C@H]1[C@H](C)O[C@@H](O[C@H]2[C@H](N(C)C)[C@@H](O)[C@H](O[C@H]3[C@@H](CC=O)C[C@@H](C)[C@@H](O[C@H]4CC[C@H](N(C)C)[C@@H](C)O4)/C=C/C=C/C[C@@H](C)OC(=O)C[C@@H](O)[C@@H]3OC)O[C@@H]2C)C[C@@]1(C)O)C(=O)c1ccc(C(C)(C)C)cc1 — IC50 (HGC-27; cell growth or viability, CCK-8; 72 h): 0.53 µM
Oc1c(/N=N/c2ccccn2)ccc2ccccc12 — IC50 (LDR; cell viability, MTS; 4 days): 0.8 µM
CCCCCCCC(=O)O[C@H]1[C@H](C)O[C@@H](O[C@H]2[C@H](N(C)C)[C@@H](O)[C@H](O[C@H]3[C@@H](CC=O)C[C@@H](C)[C@@H](O[C@H]4CC[C@H](N(C)C)[C@@H](C)O4)/C=C/C=C/C[C@@H](C)OC(=O)C[C@@H](O)[C@@H]3OC)O[C@@H]2C)C[C@@]1(C)O — IC50 (HGC-27; cell growth or viability, CCK-8; 72 h): 3.96 µM
CCCCCCCCCCCCCCCCOc1c(O)cc(C(=O)O[C@@H]2Cc3c(O)cc(O)cc3O[C@@H]2c2cc(O)c(O)c(O)c2)cc1O — IC50 (A-431; cell growth or viability, CCK-8; 24 h): 84.9 µM
C[O][Pt-2]1([Cl])([Cl])([O]C(=O)CCC(=O)OCCO)[NH2+]CC[N+]1(C)C — IC50 (CH1; cell growth or viability, MTT; 96 h): 2.5 µM
COc1cc(CN2CC3CC(CCN(C[C@H]4O[C@@H](n5cnc6c(N)ncnc65)[C@H](O)[C@@H]4O)C(C)C)CC3C2)cc(OC)c1OC (stereo partly shown) — IC50 (H460 R231Q; cell proliferation, CCK-8; 72 h): > 100 µM
CO[C@@H]1[C@@H](O[C@@H]2O[C@H](C)[C@@H](O[C@H]3C[C@@](C)(O)[C@@H](OC(=O)Nc4ccc(C(F)(F)F)cc4)[C@H](C)O3)[C@H](N(C)C)[C@H]2O)[C@@H](CC=O)C[C@@H](C)[C@@H](O[C@H]2CC[C@H](N(C)C)[C@@H](C)O2)/C=C/C=C/C[C@@H](C)OC(=O)C[C@H]1O — IC50 (HGC-27; cell growth or viability, CCK-8; 72 h): 1.76 µM
CCCc1cc2cc(-n3nc(C)c4c3CC(C)(C)CC4=O)cc(N[C@H]3CCOC3)c2c(=O)[nH]1 — IC50 (ARPE-19; cell growth or viability, MTS; 48 h): ~0.458 µM and 0.458 µM
C[O][Pt-2]([NH3+])([NH3+])([Cl])([Cl])[O]C(=O)CCC(=O)O — IC50 (CH1; cell growth or viability, MTT; 96 h): 3.8 µM
CCCCC(CC)CNC(=N)NC(=N)NCCCCNC(=N)NC(=N)NCC(CC)CCCC (stereo not shown) — IC50 (NCI-H1299; cell growth or viability, SRB; 72 h): 2 µM
CC(C)N(Cn1nc(-c2ccccc2)cc1-c1ccccc1)C(C)C — IC50 (3T3-L1; cell growth or viability, MTT): 114 µg/mL
Cc1ccc(/C=N/N=C(\S)Nc2cccc(S(=O)(=O)N(C)C)c2)o1 — IC50 (LDR; cell viability, MTS; 4 days): 21.5 µM
CC(=O)Oc1ccc(/C=C/C(=O)Nc2nc(=O)n([C@@H]3O[C@H](C)[C@@H](OC(C)=O)[C@H]3OC(C)=O)cc2F)cc1OC(C)=O — IC50 (BxPC-3; cell viability, MTT; 72 h): 32 µM and 31.6 µM
CCc1nnc(NC(=O)c2cccc(C(=O)Nc3nnc(CC)s3)n2)s1 — IC50 (HCC4017; cell growth or viability, MTS; 96 h): > 50 µM
CC(=O)N[C@@H](CCCNC(=N)N)C(=O)N[C@H](CC(=O)N[C@@H](Cc1ccccc1)C(N)=O)c1cccc2ccccc12 — IC50 (BT-474 (HER2-overexpressing)): 6.37 ± 0.31 µM
CCC(C(=O)O)C1CCC(C)C(C(C)C(O)C(C)C(=O)C(CC)C2OC3(C=CC(NCc4cn(-c5ccc(C(C)=O)cc5)nn4)C4(CCC(C)(C5CCC(O)(CC)C(C)O5)O4)O3)C(C)CC2C)O1 (stereo not shown) — IC50 (HMLER CD24high/CD44low; cell viability, CellTiter-Blue; 72 h): 0.74 ± 0.17 µM
CCCCCCCCC=CCCCCCCCC(=O)OCC1OC(n2ccc(N)nc2=O)C(F)(F)C1O (stereo not shown) — IC50 (LOX; cell growth; added: dipyridamole 4 µg/mL): 0.025 ± 0.001 µM
CC(C)(C)c1cc(=O)n2ncc(-c3ccc(F)cc3)c2[nH]1 — IC50 (SW620 organoids; vimentin reporter GFP): 8.5 µM
CCCC(CCC)C(=O)[O][Pt]([NH2])([NH2])([Cl])([Cl])[O]C(=O)C(Cl)Cl — IC50 (PSN1 3D spheroids): 3.38 ± 0.88 µM
CC(C)c1ccc(/C=C/C(=O)NC(=O)N[C@@H]2O[C@H](CO)[C@@H](O)[C@H](O)[C@H]2O)cc1 — IC50 (L1210, CEM and HeLa; cell growth; range over three cell lines): 16 to 45 µM
CCc1cc2c(cc1OC)C1(C)Cc3cnc(C)nc3C(C)(C)C1CC2 (stereo not shown) — IC50 (TM3; cell growth or viability, SRB; 24 h): > 100 µM
C[C@]12CC/C(=N\O)C=C1CCC1C2CC[C@]2(C)/C(=C/c3ccccn3)CCC12 (stereo partly shown) — IC50 (G-361; cell growth or viability, resazurin; 72 h): 45.3 µM
COc1cc(NC(=O)c2cccc(F)c2)ccc1C(=O)Nc1ccc(Cl)c(-c2ncc(-c3ccccc3)[nH]2)c1 — IC50 (NIH3T3-Gli-Luc; Hedgehog signalling, Gli-luciferase reporter; added: Shh-conditioned medium): 0.31 ± 0.09 µM
C=C(CC)C(=O)c1ccc(OCC(=O)NCCNC(=O)COc2ccc(C(=O)C(=C)CC)c(Cl)c2Cl)c(Cl)c1Cl — IC50 (CoC1; cell growth or viability, CCK-8; 72 h): ~1.2 µM
COc1ccc(NC(=O)CSc2nc3c(oc4ccccc43)c(=O)n2Cc2ccco2)cc1Cl — IC50 (LDR; cell viability, MTS; 4 days): > 50 µM
Cc1cc(C)cc(/C=N/NC(=N)N/N=C/c2cc(C)cc(C)c2)c1 — IC50 (IMR-90; cell growth or viability, crystal violet; 72 h): 89.1 µM
CC(C)c1cccc(C(C)C)c1N1CCN(c2c(C(C)C)cccc2C(C)C)C1=[Se].[Cl][Au] — IC50 (A-431; cell growth or viability, MTT; 72 h): 4.6 µM
COc1c(C)c(O)c(C(=O)C=Cc2ccccc2)c(OC)c1C — IC50 (KKU-M213; cell growth or viability, SRB; 72 h): 23.9 µM
CC(=O)OC1CC2C(C)(C)C(O)CCC2(C)C2CCC34CC3(CCC4C(C)CC3OC(C)(C)OC(C)(C)C3O)C12C (stereo not shown) — IC50 (fibroblasts; cytotoxicity, MTT): 18.4 ± 1.1 µM
Cc1ccc(C(C)C)cc1.Cc1ncc(CO)c(C=NNC2=Nc3ccccc3-c3[nH]c4ccc(Br)cc4c3C2)c1O.[Cl-].[Cl][Ru+] — IC50 (CH1; cell growth or viability, MTT; 96 h): 1.5 µM
CN1CCN(CCN2CCCN(c3ccc(Oc4ccc(F)cc4F)c(-c4cn(C)c(=O)c5[nH]ccc45)c3)S2(=O)=O)CC1 — IC50 (Light II cells; GLI reporter gene, inhibitor; Hedgehog pathway): 0.0394 ± 0.00476 µM

For quick reference, copied from above:
CCCC(CCC)C(=O)[O][Pt]([NH2])([NH2])([Cl])([Cl])[O]C(=O)C(Cl)Cl — IC50 (PSN1 3D spheroids): 3.38 ± 0.88 µM
CC(C)c1ccc(/C=C/C(=O)NC(=O)N[C@@H]2O[C@H](CO)[C@@H](O)[C@H](O)[C@H]2O)cc1 — IC50 (L1210, CEM and HeLa; cell growth; range over three cell lines): 16 to 45 µM
CCc1cc2c(cc1OC)C1(C)Cc3cnc(C)nc3C(C)(C)C1CC2 (stereo not shown) — IC50 (TM3; cell growth or viability, SRB; 24 h): > 100 µM
C[C@]12CC/C(=N\O)C=C1CCC1C2CC[C@]2(C)/C(=C/c3ccccn3)CCC12 (stereo partly shown) — IC50 (G-361; cell growth or viability, resazurin; 72 h): 45.3 µM
